Assay results from different studies.
Compare with care: the assays were run in different laboratories. Numbers after ± are the reported error.
Target: Delta-type opioid receptor (Oprd1, Rattus norvegicus, UniProt P33533)
Sequence of UniProt P33533 (whole entry, looked up): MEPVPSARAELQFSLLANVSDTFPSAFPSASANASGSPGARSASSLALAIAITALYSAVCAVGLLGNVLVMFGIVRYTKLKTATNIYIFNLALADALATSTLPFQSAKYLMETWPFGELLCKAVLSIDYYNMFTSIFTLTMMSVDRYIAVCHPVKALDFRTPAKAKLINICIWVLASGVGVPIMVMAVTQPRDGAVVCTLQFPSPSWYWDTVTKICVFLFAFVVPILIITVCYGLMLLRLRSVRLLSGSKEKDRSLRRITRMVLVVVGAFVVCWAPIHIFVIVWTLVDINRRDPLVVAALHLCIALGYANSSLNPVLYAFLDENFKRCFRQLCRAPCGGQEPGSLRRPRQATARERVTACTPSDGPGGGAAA

CC(C)C[C@H](NC(=O)[C@H](Cc1ccc2ccccc2c1)NC(=O)CNC(=O)[C@H](NC(=O)[C@@H](N)Cc1ccc(O)cc1)[C@H](C)O)C(=O)N[C@@H](CO)C(N)=O — EC50 (GTPγS binding, agonist, radiometric; cell membranes): 0.0113 µM
Cc1cc(O)cc(C)c1CC(N)C(=O)NC1CCNc2c(CCc3ccccc3)cc(Cc3ccccc3)cc21 (stereo not shown) — EC50 (GTPγS binding, agonist, radiometric; cell membranes): 0.033 µM
CC(C)C[C@H](NC(=O)[C@H](Cc1ccc2ccccc2c1)NC(=O)CNC(=O)[C@H](NC(=O)[C@@H](N)Cc1ccc(O)cc1)[C@H](C)O)C(=O)N[C@@H](CO[C@@H]1O[C@H](CO)[C@@H](O)[C@H](O)[C@H]1O)C(N)=O — EC50 (GTPγS binding, agonist, radiometric; cell membranes): 0.026 µM
Cc1cc(O)cc(C)c1CC(N)C(=O)NC1CCNc2ccc(Cc3ccc4ncccc4c3)cc21 (stereo not shown) — Ki (ligand displacement, radioligand; cell membranes): 0.023 µM
Cc1cc(O)cc(C)c1C[C@H](N)C(=O)N1Cc2ccccc2C[C@H]1CN[C@@H](Cc1ccccc1)C(=O)N[C@@H](Cc1ccccc1)C(N)=O — IC50 (cAMP inhibition, agonist; C6 expressing target; with: forskolin): 0.0022 ± 0.0009 µM
CC(C)C[C@H](NC(=O)[C@H](Cc1cccc2ccccc12)NC(=O)CNC(=O)[C@H](NC(=O)[C@@H](N)Cc1ccc(O)cc1)[C@H](C)O)C(=O)N[C@@H](CO)C(N)=O — Ki (ligand displacement, radioligand; pH 7.4, cell membranes): 0.0009 µM
Cc1cc(O)cc(C)c1CC(N)C(=O)NC1CCNc2ccc(Cn3cncn3)cc21 (stereo not shown) — Ki (ligand displacement, radioligand; cell membranes): 0.05 µM
Cc1cc(O)cc(C)c1CC(N)C(=O)NC1CCNc2c(Cc3ccccc3)cc(Cc3ccccc3)cc21 (stereo not shown) — EC50 (GTPγS binding, agonist, radiometric; cell membranes): 0.38 µM
Cc1cc(O)cc(C)c1CC(N)C(=O)NC1CCNc2ccc(Cc3ccc4c(c3)OCO4)cc21 (stereo not shown) — Ki (ligand displacement, radioligand; cell membranes): 0.0043 µM
Cc1cc(O)cc(C)c1CC(N)C(=O)NC1CCNc2c(CN3CCOCC3)cc(Cc3ccccc3)cc21 (stereo not shown) — EC50 (GTPγS binding, agonist, radiometric; cell membranes): 0.18 µM

Excerpt of the above:
Cc1cc(O)cc(C)c1CC(N)C(=O)NC1CCNc2ccc(Cn3cncn3)cc21 (stereo not shown) — Ki (ligand displacement, radioligand; cell membranes): 0.05 µM
